Published values gathered from unrelated publications.
Compare with care: the assays were run in different laboratories. Values joined by “and” are separate records of one study, mostly repeats; a detail may differ. ± gives the spread as reported. Converted amounts (≈) assume the structure as drawn.
UniProt Q71U36, sequence (whole entry, looked up): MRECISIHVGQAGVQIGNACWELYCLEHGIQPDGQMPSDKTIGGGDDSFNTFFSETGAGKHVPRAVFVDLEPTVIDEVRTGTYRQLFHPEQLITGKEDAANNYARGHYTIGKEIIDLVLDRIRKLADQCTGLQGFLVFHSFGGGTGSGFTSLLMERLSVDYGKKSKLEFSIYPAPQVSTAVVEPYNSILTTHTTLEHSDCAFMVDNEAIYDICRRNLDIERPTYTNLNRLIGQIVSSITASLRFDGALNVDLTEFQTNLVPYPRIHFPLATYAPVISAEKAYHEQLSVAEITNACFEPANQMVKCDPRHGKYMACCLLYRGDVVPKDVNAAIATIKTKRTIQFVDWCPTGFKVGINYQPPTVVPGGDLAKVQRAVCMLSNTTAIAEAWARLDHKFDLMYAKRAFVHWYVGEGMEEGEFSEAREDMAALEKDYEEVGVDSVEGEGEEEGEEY
UniProt P50416, sequence (whole entry, looked up): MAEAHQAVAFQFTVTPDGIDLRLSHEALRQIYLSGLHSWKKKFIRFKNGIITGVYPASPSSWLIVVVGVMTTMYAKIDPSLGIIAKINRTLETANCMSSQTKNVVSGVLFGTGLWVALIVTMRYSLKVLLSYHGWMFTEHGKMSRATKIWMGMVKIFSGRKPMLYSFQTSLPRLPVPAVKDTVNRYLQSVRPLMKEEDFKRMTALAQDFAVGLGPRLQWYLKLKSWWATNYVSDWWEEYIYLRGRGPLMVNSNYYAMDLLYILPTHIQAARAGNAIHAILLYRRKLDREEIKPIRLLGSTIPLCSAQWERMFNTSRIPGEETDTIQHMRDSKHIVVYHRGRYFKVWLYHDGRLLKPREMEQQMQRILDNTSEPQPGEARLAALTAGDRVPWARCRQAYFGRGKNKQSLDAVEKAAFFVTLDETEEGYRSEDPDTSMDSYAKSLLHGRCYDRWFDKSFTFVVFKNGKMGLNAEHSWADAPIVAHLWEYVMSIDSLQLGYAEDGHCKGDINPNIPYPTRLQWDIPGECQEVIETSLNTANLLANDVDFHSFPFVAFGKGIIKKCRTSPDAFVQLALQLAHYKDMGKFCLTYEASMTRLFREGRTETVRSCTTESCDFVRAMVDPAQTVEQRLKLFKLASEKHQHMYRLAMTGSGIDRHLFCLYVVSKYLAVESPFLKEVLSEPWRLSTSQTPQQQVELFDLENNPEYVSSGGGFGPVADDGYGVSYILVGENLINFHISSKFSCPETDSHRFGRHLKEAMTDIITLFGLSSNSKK
UniProt P35348, sequence (whole entry, looked up): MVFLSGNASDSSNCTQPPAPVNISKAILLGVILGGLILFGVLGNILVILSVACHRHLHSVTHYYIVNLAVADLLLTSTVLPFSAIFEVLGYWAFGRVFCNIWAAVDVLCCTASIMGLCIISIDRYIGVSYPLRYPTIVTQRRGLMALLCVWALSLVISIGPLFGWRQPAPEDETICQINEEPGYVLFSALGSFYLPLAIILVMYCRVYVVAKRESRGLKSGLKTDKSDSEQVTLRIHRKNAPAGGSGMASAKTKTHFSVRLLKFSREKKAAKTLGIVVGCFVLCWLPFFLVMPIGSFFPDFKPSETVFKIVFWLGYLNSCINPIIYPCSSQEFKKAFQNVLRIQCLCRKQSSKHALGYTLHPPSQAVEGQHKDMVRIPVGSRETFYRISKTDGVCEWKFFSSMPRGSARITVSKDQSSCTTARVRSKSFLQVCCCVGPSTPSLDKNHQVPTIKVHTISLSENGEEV
UniProt Q15831, sequence (whole entry, looked up): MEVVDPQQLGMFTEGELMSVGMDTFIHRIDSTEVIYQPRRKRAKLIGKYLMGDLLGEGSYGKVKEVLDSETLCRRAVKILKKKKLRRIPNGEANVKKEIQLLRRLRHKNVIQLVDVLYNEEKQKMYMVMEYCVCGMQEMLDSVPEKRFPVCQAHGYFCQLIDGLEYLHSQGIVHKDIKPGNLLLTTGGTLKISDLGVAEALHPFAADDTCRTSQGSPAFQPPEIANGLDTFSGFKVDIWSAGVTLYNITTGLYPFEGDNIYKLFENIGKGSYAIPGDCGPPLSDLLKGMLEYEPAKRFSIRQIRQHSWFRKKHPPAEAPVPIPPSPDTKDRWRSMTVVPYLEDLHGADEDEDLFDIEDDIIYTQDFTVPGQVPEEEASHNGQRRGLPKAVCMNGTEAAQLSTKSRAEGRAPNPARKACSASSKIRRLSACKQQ

COc1cc(C#CC(=O)c2ccccc2)ccc1O
pyocyanin production (Pseudomonas aeruginosa; 10 µM, 24 h; reference: untreated): 30%

Cc1ccc(N(c2ccc(NC(=O)CN(C)c3ccccc3N3CCCC3=O)cc2)C(C)C)cc1
minimum inoculum of resistance (Plasmodium falciparum; Dd2-B2; 27 nM, 60 days): 4e+07 parasites

Nc1ccn(C[C@@H](CO)OCP(=O)(O)O)c(=O)n1
EC50 (human cytomegalovirus; viral cytopathic effect; HEL, AD-169): 0.51 µM

COc1cc(Nc2ncc(F)c(Nc3ccc4c(n3)NC(=O)C(C)(C)O4)n2)cc(OC)c1OC
IC50 (CPT1A (Homo sapiens, UniProt P50416); enzyme activity, inhibitor): > 10 µM

Cn1c(=O)ccc2ccc(F)c(CCNC[C@H]3CN(c4cnc5c(n4)NC(=O)CO5)C(=O)O3)c21
MIC90 (Proteus spp.): 0.5 µg/mL (≈ 1.07 µM)

COc1ccc2c(ccc3oc([N+](=O)[O-])c(OC)c32)c1
MIC90 (Mycobacterium marinum; REMA; ATCC BAA-535): > 32 µg/mL

O=C(NNc1ccccc1)c1nnc(CC23CC4CC(CC(C4)C2)C3)o1
inhibition (Botryosphaeria dothidea; fungal growth, inhibitor; 50 µg/mL): 100%

Cl.N=C(CC(O)c1cc2c(F)cc(F)cc2c2cc(C(F)(F)F)ccc12)Nc1ccc(F)c(F)c1 (stereo not drawn)
mean survival time (Plasmodium berghei; Peters test; ANKA, mice; oral, 4 x 3 mg/kg): 13 days

CO[C@H]1C[C@@H]2CC[C@@H](C)[C@@](O)(O2)C(=O)C(=O)N2CCCC[C@H]2C(=O)O[C@H]([C@H](C)C[C@@H]2CC[C@@H](OC(=O)NCCOCCOCCOCCOCCOCCOCCOCCOCCC(=O)N3CCc4cc(Cn5nc(-c6ccc7oc(N)nc7c6)c6c(N)ncnc65)ccc4C3)[C@H](OC)C2)C[C@@H](O)[C@H](C)/C=C(\C)[C@@H](O)[C@@H](OC)C(=O)[C@H](C)C[C@H](C)/C=C/C=C/C=C/1C
dose-reducing adverse events (phase 1 dose escalation, refers to: mucositis; advanced solid tumour patients; intravenous, 10 mg weekly, grade ≥3): 0%

COC(=O)N[C@H](C(=O)N1CCC[C@H]1c1ncc(-c2ccc(-c3ccc(-c4cnc([C@@H]5CCCN5C(=O)[C@@H](NC(=O)OC)C(C)C)[nH]4)cc3)cc2)[nH]1)C(C)C
combination index (Hepatitis C virus; replicon cells; 75% effect level, with: NS5B palm site II inhibitor, ratio 2.5:1): 0.6

O=C(NNc1cccc(Cl)c1)c1nnc(CC23CC4CC(CC(C4)C2)C3)o1
inhibition (Botryosphaeria dothidea; fungal growth, inhibitor; 50 µg/mL): 100%

CC[C@H](C)[C@H](NC(=O)[C@H](Cc1ccccc1)NC(=O)[C@@H](NC(=O)[C@H](CO)NC(=O)[C@@H](N)CCCNC(=N)N)[C@@H](C)CC)C(=O)N[C@@H](CCCCN)C(=O)N[C@@H](Cc1ccc(O)cc1)C(=O)N[C@@H](CCCCN)C(=O)N[C@@H](CO)C(=O)N[C@@H](CCCCN)C(=O)N1CCC[C@H]1C(=O)N[C@@H](Cc1ccccc1)C(=O)N[C@@H](CS)C(=O)N[C@@H](CCC(=O)O)C(=O)N[C@@H](CCCCN)C(=O)N[C@@H](CC(C)C)C(=O)N[C@@H](CC(C)C)C(=O)N[C@@H](CO)C(=O)N[C@@H](Cc1c[nH]c2ccccc12)C(=O)N[C@H](C(=O)N[C@@H](CCCCN)C(=O)N[C@@H](CO)C(=O)O)C(C)C
MBC (Micrococcus luteus; NCTC 2665): 8 µg/mL

Nc1ncnc2c1ncn2[C@@H]1O[C@@H]2COP(=O)(O)O[C@H]3[C@@H](O)[C@H](n4cnc5c(=O)[nH]cnc54)O[C@@H]3COP(=O)(O)O[C@H]2[C@H]1O
fold enrichment (West Nile virus; RNA sequencing Reactome analysis, refers to: Kinesins (R-HSA-983189); HFF-1; concentration not given, upregulated pathways, with: West Nile virus infection; reference: WNV-infected without compound): 4.95

C[C@H]1COCCN1c1nc(NCc2cccnc2C(F)(F)F)c2cccnc2n1
median microfilaria count (Brugia malayi; SCID mouse, peritoneal cavity; dose not given, 6 weeks post-treatment, dosing x14d): 0 microfilariae per mouse

C[C@H]1CN(c2n[nH]c3nc(N[C@H]4CC[C@H](NS(=O)(=O)CCC(F)(F)F)CC4)ncc23)CCO1
remaining binding (Tubulin alpha-1A chain (Homo sapiens, UniProt Q71U36); Kinobeads competition, refers to: TUBA1A; 0.16 µM, unit not given; reference: vehicle): 1.02

CC[C@H](C)[C@@H]1NC(=O)[C@@H]2CCCN2C(=O)[C@H](CC(C)C)NC(=O)[C@H](CC(C)C)NC(=O)CNC(=O)[C@@H](NC(=O)[C@@H](NC(=O)[C@H](CC(=O)O)NC(=O)CNC(=O)[C@@H](NC(=O)[C@H](C)NC(=O)CNC(=O)[C@H](CCCCN)NC(=O)[C@H](CC(C)C)NC(=O)[C@H](CC(C)C)NC(=O)[C@H](CCCCN)NC(=O)CNC(=O)[C@@H](NC(=O)[C@@H](N)CC(C)C)C(C)C)C(C)C)C(C)C)CSSC[C@@H](C(=O)O)NC1=O
log2 fold change (RNA-seq, refers to: Fgl2; mouse, traumatic brain injury model, frontal cortex and hippocampus; dose not given; reference: TBI alone): -1.46

O=[N+]([O-])c1c[nH]c(-c2nc(-c3ccc(OC4CCCC4)cc3)no2)n1
antibacterial activity (Gram-negative bacteria; concentration not given): inactive

C=CC[C@@H]1c2ccc(OC)c(OC)c2CN2CCc3cc4c(cc3[C@H]12)OCO4
relative wound size (Staphylococcus aureus; P2rx7 A312V/A312V mice, skin wound infection; dose not given, day 1; reference: day 0): 1.22 and 0.69 and 1.07 and 0.94

CCOC(=O)c1ccc(OCCC2CCN(c3ccc(C)nn3)CC2)cc1
viral replication (rhinovirus C15a-mGL; high-content imaging; HeLa-CDHR3 C529Y; up to 1 µM): no effect

CC[C@H](C)[C@H](NC(=O)[C@H](C)NC(=O)[C@H](CCCCN)NC(=O)[C@H](CC(C)C)NC(=O)[C@H](C)NC(=O)[C@@H](NC(=O)[C@H](Cc1c[nH]cn1)NC(=O)[C@H](CC(C)C)NC(=O)[C@@H](NC(=O)[C@@H](NC(=O)[C@H](CCCCN)NC(=O)[C@H](C)NC(=O)[C@H](C)NC(=O)[C@H](CO)NC(=O)[C@H](CCCCN)NC(=O)[C@H](Cc1ccccc1)NC(=O)[C@@H](NC(=O)[C@H](CCCCN)NC(=O)[C@H](CC(C)C)NC(=O)[C@H](Cc1ccccc1)NC(=O)[C@H](CO)NC(=O)[C@H](CCCCN)NC(=O)[C@H](Cc1c[nH]c2ccccc12)NC(=O)[C@H](CCCCN)NC(C)=O)[C@@H](C)O)[C@@H](C)O)C(C)C)[C@@H](C)O)C(=O)N[C@@H](CO)C(=O)N[C@@H](CO)C(N)=O
MIC range (Streptococcus pyogenes; ATCC 13813): 16 µg/mL (≈ 5.45 µM)

O=c1c(O)c(-c2ccc(O)c(O)c2)oc2c(O)c(O)cc(O)c12
fluorescein ingestion (Drosophila melanogaster; fluorescence; liquid food, 40 µg/mL, first instar larvae; reference: solvent): -32.2%

CN1CCN(S(=O)(=O)c2cc([N+](=O)[O-])ccc2N(CCOS(C)(=O)=O)CCOS(C)(=O)=O)CC1
IC50 (Homo sapiens; cell viability, resazurin or CellTiter-Glo; sample C BCP-ALL PDX cells, ex vivo; 48 h): 0.0473 µM

CCCCN(CCCC)CC(O)c1cc(Cl)cc2c1-c1ccc(Cl)cc1/C2=C/c1ccc(Cl)cc1 (stereo not drawn)
parasitemia reduction (Plasmodium berghei; Peters suppressive test; ANKA, infected mice; oral, 4 x 30 mg/kg, day 4; reference: untreated control): 99.8%

CS(=O)(=O)CCCn1c(Cn2c(=O)n(CC(F)(F)F)c3ccncc32)cc2cc(Cl)ccc21
LS mean viral load change (respiratory syncytial virus; RT-qPCR; hospitalized infants 1-24 months, nasal swab; oral, 1-9 mg/kg daily, day 4, all doses combined; reference: baseline): -2.65 log10 copies/mL

Cl.N=C(CC(O)c1cc2c(F)cc(F)cc2c2cc(C(F)(F)F)ccc12)Nc1ccc(Br)cc1 (stereo not drawn)
parasitemia reduction (Plasmodium berghei; Peters suppressive test; ANKA, infected mice; oral, 4 x 10 mg/kg, day 4; reference: untreated control): 99.7%

CCc1c([N+](=O)[O-])oc2ccc3ccccc3c12
MIC90 (Mycobacterium marinum; REMA; ATCC BAA-535): 0.0625 µg/mL (≈ 0.259 µM)

CCCCc1ccc(CNc2nc(N(C)C)nc(N(C)C)c2/N=N/c2ccc(Cl)cc2)cc1
mortality (Plutella xylostella; leaf dipping; 100 mg/L): 90%

CN1CCN(c2cc(-c3ccncc3)c(-c3ccc4ccccc4c3)nn2)CC1
inhibition (ADRA1A (Homo sapiens, UniProt P35348); antagonist, FLIPR; 10 µM): -1.7%

COc1cc[nH]c1/C=C1\C(=O)Nc2ccc([N+](=O)[O-])c(N3CC[C@@H](O)C3)c21
fold decrease in protein level (human cytomegalovirus; western blot densitometry, refers to: IE2-86 and IE2-60; HFF, AD169; 0.01 µM; reference: DMSO): ~2 fold

COC(=O)C(N)Cc1ccc(OP2(=O)COC(Cn3ccc(N)nc3=O)CO2)cc1 (stereo not drawn)
IC50 (human cytomegalovirus; viral replication): 0.2 µM

Cl.N/C(CC(O)c1cc2c(F)cc(F)cc2c2cc(C(F)(F)F)ccc12)=N\c1ccc(F)cc1 (stereo not drawn)
mean survival time (Plasmodium berghei; Peters test; ANKA, mice; oral, 4 x 3 mg/kg): 20 days

COc1ccc(C[C@H](NC(=O)[C@H](C)NC(=O)CN2CCOCC2)C(=O)N[C@@H](Cc2ccccc2)C(=O)C2(C)CO2)cc1 (stereo in doubt)
mean survival time (Plasmodium berghei; ANKA, BALB/c mouse; 10 mg/kg): > 14 days

COc1ccc(N2C(=O)N(c3c(C)cccc3Cl)Cc3cnc(Nc4ccc(C5CCN(C)CC5)cc4OC)nc32)nc1
inhibition (STK11 (Homo sapiens, UniProt Q15831); kinase activity, inhibitor; 0.5 µM, LKB1): 4%

COC(=O)c1ccc2c(ccc3oc([N+](=O)[O-])cc32)c1
MIC90 (Mycobacterium marinum; REMA; ATCC BAA-535): 0.0625 µg/mL (≈ 0.23 µM)

N=C(N)c1ccc(OCc2ccc(Br)cc2COc2ccc(C(=N)N)cc2)cc1
FICI (Escherichia coli; checkerboard; BW25113 mcr-1 plasmid; unit not given, with: rifampicin; lower = stronger synergy): ≤ 0.039

Cn1cc(NC(=O)c2cc(NC(=O)CN=C(N)N)cn2C)cc1C(=O)NCCC(=N)N
cell area (Bacillus subtilis; bacterial cytological profiling; ATCC 6633; concentration not given): 2.41 µm² and 2.47 µm² and 2.27 µm²

C[C@]1(CO)Cc2ncn(-c3ccc(C#N)c(Cl)c3)c2C(=O)O1
half-life (healthy Japanese adults, plasma; 3 mg single dose): 4.9 h

CN(C)c1nc(NCc2ccc(OC(F)(F)F)cc2)c(/N=N/c2ccc(Cl)cc2)c(N(C)C)n1
mortality (Plutella xylostella; leaf dipping; 200 mg/L, 96 h): 73.3 ± 5.8%

N=C(N)NCCC[C@H](NC(=O)[C@H](Cc1c[nH]c2ccccc12)NC(=O)[C@H](CCCNC(=N)N)NC(=O)[C@@H](N)Cc1c[nH]c2ccccc12)C(=O)N[C@@H](Cc1ccccc1)C(=O)N[C@@H](CCC(N)=O)C(=O)N[C@@H](Cc1ccccc1)C(=O)N[C@@H](CCC(N)=O)C(=O)N[C@@H](Cc1ccccc1)C(=O)N[C@@H](CCCCN)C(N)=O
MBC (Bacillus subtilis): 35 µM

A few entries again:
CC[C@H](C)[C@H](NC(=O)[C@H](C)NC(=O)[C@H](CCCCN)NC(=O)[C@H](CC(C)C)NC(=O)[C@H](C)NC(=O)[C@@H](NC(=O)[C@H](Cc1c[nH]cn1)NC(=O)[C@H](CC(C)C)NC(=O)[C@@H](NC(=O)[C@@H](NC(=O)[C@H](CCCCN)NC(=O)[C@H](C)NC(=O)[C@H](C)NC(=O)[C@H](CO)NC(=O)[C@H](CCCCN)NC(=O)[C@H](Cc1ccccc1)NC(=O)[C@@H](NC(=O)[C@H](CCCCN)NC(=O)[C@H](CC(C)C)NC(=O)[C@H](Cc1ccccc1)NC(=O)[C@H](CO)NC(=O)[C@H](CCCCN)NC(=O)[C@H](Cc1c[nH]c2ccccc12)NC(=O)[C@H](CCCCN)NC(C)=O)[C@@H](C)O)[C@@H](C)O)C(C)C)[C@@H](C)O)C(=O)N[C@@H](CO)C(=O)N[C@@H](CO)C(N)=O
MIC range (Streptococcus pyogenes; ATCC 13813): 16 µg/mL (≈ 5.45 µM)

COC(=O)c1ccc2c(ccc3oc([N+](=O)[O-])cc32)c1
MIC90 (Mycobacterium marinum; REMA; ATCC BAA-535): 0.0625 µg/mL (≈ 0.23 µM)

Cn1c(=O)ccc2ccc(F)c(CCNC[C@H]3CN(c4cnc5c(n4)NC(=O)CO5)C(=O)O3)c21
MIC90 (Proteus spp.): 0.5 µg/mL (≈ 1.07 µM)

O=C(NNc1ccccc1)c1nnc(CC23CC4CC(CC(C4)C2)C3)o1
inhibition (Botryosphaeria dothidea; fungal growth, inhibitor; 50 µg/mL): 100%

CN(C)c1nc(NCc2ccc(OC(F)(F)F)cc2)c(/N=N/c2ccc(Cl)cc2)c(N(C)C)n1
mortality (Plutella xylostella; leaf dipping; 200 mg/L, 96 h): 73.3 ± 5.8%

C[C@H]1COCCN1c1nc(NCc2cccnc2C(F)(F)F)c2cccnc2n1
median microfilaria count (Brugia malayi; SCID mouse, peritoneal cavity; dose not given, 6 weeks post-treatment, dosing x14d): 0 microfilariae per mouse
